Experimental data from different studies.
Every numbered part comes from another study and shows a few of its results, in no order.

Study 1 — technique: protein binding microarray; molecule type: double-stranded DNA, one strand shown; matrix: in vitro; tested at: not given; reference: not given; direction: higher = stronger binding
Target: Histone acetyltransferase KAT6A, winged helix 2, GST fusion (KAT6A, Homo sapiens, UniProt Q92794, residues 85-181)
Setting: 8-mer, flanks averaged, mean of 2 arrays, mostly near background
Residues (chain): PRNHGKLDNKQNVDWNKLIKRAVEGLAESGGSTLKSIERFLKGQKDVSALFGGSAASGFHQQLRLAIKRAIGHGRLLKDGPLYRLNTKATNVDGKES
| Strand | E-score |
| --- | --- |
| ACGTTATC | -0.22 |
| AATTTGAT | 0.0404 |
| CGCACGCA | 0.192 |
| CCCACCAG | -0.0274 |
| CTGATCTC | 0.106 |
| CGACGACG | -0.0346 |

Study 2 — technique: protein-binding microarray; molecule type: double-stranded DNA, one strand shown; matrix: in vitro; tested at: 2540 nM top; setting: 60-bp whole probe; together with: salmon DNA 0.4 mg/ml; reference: random background probes; direction: higher = stronger binding; constant ends, left off below: GCCTAGCAC … GTCTTGATTCGCTTGACGCTGCTG
Target: Interferon regulatory factor 3, full length, phosphomimetic (IRF3, Homo sapiens, UniProt Q14653, residues 1-427, S386D/S396D/S398D/S402D/T404D/S405D)
Chain of UniProt Q14653 (whole entry, unmodified, looked up): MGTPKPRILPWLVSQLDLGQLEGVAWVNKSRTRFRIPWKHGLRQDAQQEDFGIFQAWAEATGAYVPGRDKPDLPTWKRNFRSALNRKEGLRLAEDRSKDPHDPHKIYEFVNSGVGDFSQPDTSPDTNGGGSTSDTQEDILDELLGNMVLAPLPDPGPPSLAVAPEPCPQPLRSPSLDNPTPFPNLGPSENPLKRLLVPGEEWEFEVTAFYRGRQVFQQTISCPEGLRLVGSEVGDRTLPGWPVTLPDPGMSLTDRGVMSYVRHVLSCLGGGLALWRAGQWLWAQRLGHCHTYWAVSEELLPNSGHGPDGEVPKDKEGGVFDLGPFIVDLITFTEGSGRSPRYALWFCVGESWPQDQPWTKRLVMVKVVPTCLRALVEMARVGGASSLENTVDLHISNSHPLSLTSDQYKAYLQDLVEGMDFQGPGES
| Strand | fitted relative affinity |
| --- | --- |
| CCACACACCATTCTCGGGACGTGCTAG | 2.01 z-score |
| TTAGGTGTCGGTCTCGGTTAGTGCTAG | 2.87 z-score |
| TTAGGACTGCTTACCCTTTAGTGCTAG | 0.846 z-score |
| TCATTTCCATTTTCTGAAACTGTGCTA | 5.08 z-score |
| GTCGGACTGGGGTTTCGGGACGTGCTA | 0.903 z-score |

Study 3 — technique: RNA Bind-n-Seq; molecule type: RNA; matrix: in vitro; tested at: 200 nM; setting: whole 134-nt RNA, ends assumed; together with: 150 mM LiCl; reference: input library; direction: higher = stronger binding; each molecule: 7-deaza-guanosine replaces G
Target: Fragile X messenger ribonucleoprotein 1, C-terminal low-complexity region (Fmr1, Mus musculus, UniProt P35922)
Constant ends, left off below: GGGAGUUCUACAGUCCGACGAUC … UGGAAUUCUCGGGUGUCAAGG
| Strand | log2 enrichment |
| --- | --- |
| AAGUCCUGUGCUACACAUCGUAUGUACCGAAUCGGGGAAAAGGAAAAGGGGAAAAGGAAAGUAUUAUGUUACGCCGUUCGGAUCUGCACU | 0.0743 |
| AAGUCCUGUGCUACACAUCGUAUGUACCGAAUCGGGUUUUUGGGUUUUUGGGAGGGAAAGUAUUAUGUUACGCCGUUCGGAUCUGCACUU | -0.663 |
| UUUGCAGAGCAGUCUCUGAUGAAGAAUGCCAUAAAAACAUCGGAGGAGUCAUGGAUUGAACAGCAGAUGCUAGAAGACAAGAAACGGGCC | -2.17 |
| CACAAAAAACACGCACCCACACAGACACAGAGGGAAGGGGUUGGGAUGGGGACAGGGUGCACAGCAGGGCGGGGUAGGACCCCAGCCCCU | 0.778 |
| AAGUCCUGUGCUACACAUCGUAUGUACCGAAUCGGUUUUUUUGGUUUUUUUGGAGGAAAGUAUUAUGUUACGCCGUUCGGAUCUGCACUU | -1.52 |
| UCAAGUCCUGUGCUACACAUCGUAUGUACCGAAUCGGUGGUUUGGUUUUUUUGGAAAGUAUUAUGUUACGCCGUUCGGAUCUGCACUUCC | -0.724 |
| UGGGAGGUGGAUUUUGUUUAUUUUUUUAGCUCAUUUCCAGGGGAGGGAAUUUUUUUUUAAUAUGUGUCAUGAAUAAAGUUGUUUUUGAAA | -0.289 |
| GUCCUGUGCUACACAUCGUAUGUACCGAAUCGGGGAAAGGGGUUUUUGGGGAAAGGGGAAAGUAUUAUGUUACGCCGUUCGGAUCUGCAC | -0.213 |

Single results of other studies
| Molecule | target | assay | system | conditions | scale | endpoint | value |
| --- | --- | --- | --- | --- | --- | --- | --- |
| PhoQ, residues 284 288 289 292 302 303 TVTVVA | PhoP, residues 12 14 15 18 19 NHTVL (Escherichia coli, UniProt P23836) | Sort-seq, refers to: YFP reporter | E. coli | PhoQ-PhoP variant library, together with: 10 µM Mg2+ | reference: high Mg2+ state, higher = stronger signaling | fold induction | 9.97 |

Excerpt of the above (study 3):
| Strand | log2 enrichment |
| --- | --- |
| AAGUCCUGUGCUACACAUCGUAUGUACCGAAUCGGUUUUUUUGGUUUUUUUGGAGGAAAGUAUUAUGUUACGCCGUUCGGAUCUGCACUU | -1.52 |
| UGGGAGGUGGAUUUUGUUUAUUUUUUUAGCUCAUUUCCAGGGGAGGGAAUUUUUUUUUAAUAUGUGUCAUGAAUAAAGUUGUUUUUGAAA | -0.289 |
